Published values from different studies.
Lines come from different studies, so protocols differ. Values joined by “and” are separate records of one study, mostly repeats; a detail may differ. ± marks the error that the study gave.
SLC10A1: Hepatic sodium/bile acid cotransporter (SLC10A1, Homo sapiens, UniProt Q14973)
Protein farnesyltransferase: Protein farnesyltransferase (Homo sapiens, UniProt P49354+P49356)
GPR17: Uracil nucleotide/cysteinyl leukotriene receptor (GPR17, Homo sapiens, UniProt Q13304)
T1: RNA aptamer optimized Class V; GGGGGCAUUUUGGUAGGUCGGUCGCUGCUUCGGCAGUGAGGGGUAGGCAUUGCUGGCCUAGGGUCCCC

O=[N+]([O-])c1ccc(O)cc1  Vmax (UDP-glucuronosyltransferase 1A9 (UGT1A9, Homo sapiens, UniProt O60656); substrate; pH 7.4, 37 °C): 2900 pmol/mg/min
C[C@H](NC(=O)[C@H](Cc1ccccc1)NC(=O)[C@@H](NC(=O)[C@H](Cc1ccccc1)N(C)C(=O)[C@H](C)NC(=O)[C@H](CCCNC(=N)N)N(C)C(=O)[C@@H]1CCCN1C(=O)[C@H](CCCNC(=N)N)NC(=O)CNC(=O)c1ccc2c(c1)C1(OC2=O)c2ccc(O)cc2Oc2cc(O)ccc21)[C@@H](C)O)C(=O)N[C@@H](CCC(=O)O)C(=O)NCC(N)=O  time to half phosphorylation (RAC-alpha serine/threonine-protein kinase (AKT1, Homo sapiens, UniProt P31749); substrate, CE-LIF; 25 µM, pH 7.0, 30 °C, enzyme 6 nM, added: ATP 1 mM): 125 min
farnesene  fluorescence intensity of probe (chemosensory protein 1 (Chilo suppressalis, UniProt V9PY22); ligand, competitive fluorescence binding; concentration not given, pH 7.4, highest concentration tested, added: 2 µM fluorescent probe): 49.7 ± 1.29%
CC(C(=O)O)c1cccc(C(=O)c2ccccc2)c1 (centres unmarked)  taurocholate uptake (SLC10A1; inhibitor; HEK293 expressing NTCP; 100 µM, 5 min, added: taurocholate 10 µM; baseline: no compound): 84.6 ± 6.1%
CTIL  relative fluorescence increase (Protein farnesyltransferase; enzyme activity, substrate, fluorimetric; peptide; 3 µM, 30 min, added: 9 µM farnesyl diphosphate; baseline: dansyl-GCVLS (set to 1.0)): 0.45
c1cc(CN2CCCCC2)ccc1CN1CCCCC1  lowest effective concentration (C-X-C chemokine receptor type 4 (CXCR4, Homo sapiens, UniProt P61073); binding, competition binding; MDA-MB-231; semi-quantitative screen, added: biotinylated TN14003): 10 nM
Nc1nc2c(ncn2[C@@H]2O[C@H](COP(=O)(O)OP(=O)(O)OP(=O)(O)O)[C@@H](O)[C@H]2O)c(=O)[nH]1  Kd (T1, RNA aptamer optimized Class V; ultrafiltration; apparent, added: GTP): 17 nM
O=C(CC1NCCCC1O)Cn1cnc2cc(Br)c(Cl)cc2c1=O (centres unmarked)  melting temperature (Bifunctional glutamate/proline--tRNA ligase, prolyl-tRNA synthetase domain (EPRS1, Homo sapiens, UniProt P07814); thermal shift): 73.5 °C and 64.3 °C and 79.8 °C
CEKL  relative fluorescence increase (Protein farnesyltransferase; enzyme activity, substrate, fluorimetric; peptide; 3 µM, 30 min, added: 9 µM farnesyl diphosphate; baseline: dansyl-GCVLS (set to 1.0)): 0
CN(C)C/C=C/C(=O)Nc1cccc(C(=O)Nc2ccc(Nc3nccc(-c4c(-c5ccccc5)nn5ccccc45)n3)cc2)c1  inhibition (Phosphatidylinositol 3-kinase catalytic subunit type 3 (PIK3C3, Homo sapiens, UniProt Q8NEB9); ATP-biotin probe labeling, KiNativ; A-375; 1 µM, 3 h, second of two sites): -11%
CC(C)C[C@H](NC(=O)[C@H](CC(C)C)NC(=O)[C@H](Cc1ccccc1)NC(=O)[C@@H](N)CO)C(=O)N[C@@H](CCCNC(=N)N)C(=O)N[C@@H](CC(N)=O)C(=O)O  binding free energy (Proteinase-activated receptor 1 (F2R, Homo sapiens, UniProt P25116); AFM force spectroscopy; proteoliposomes): -11.2 kcal/mol
CC[C@H](C)[C@H](NC(=O)[C@@H](NC(=O)[C@H](C)NC(=O)[C@H](Cc1ccc(OP(=O)(O)O)cc1)NC(=O)[C@H](CCC(=O)O)NC(=O)[C@@H](NC(=O)[C@H](CCC(N)=O)NC(=O)[C@H](CCC(=O)O)NC(C)=O)[C@@H](C)O)[C@@H](C)O)C(=O)N[C@H](C(=O)N[C@@H](Cc1ccccc1)C(=O)N1CCC[C@H]1C(N)=O)C(C)C  conformational entropy change (Tyrosine-protein phosphatase non-receptor type 11, N-SH2 domain (PTPN11, Homo sapiens, UniProt Q06124); peptide binding; concentration not given, 298 K): -19.5 J/(mol·K)
CSCCNc1nc(SCCC(F)(F)F)nc2c1ncn2[C@@H]1O[C@H](COP(=O)([O-])OP(=O)([O-])C(Cl)(Cl)P(=O)([O-])[O-])[C@@H](O)[C@H]1O.[Na+].[Na+].[Na+].[Na+]  breakthrough time (GPR17; frontal affinity chromatography-MS; immobilized on IAM column; 1 µM, compound mixture): 24.6 min
Oc1c(Cl)cc(-c2cccc(Cl)c2)cc1Cl  Vmax (Sulfotransferase 2A1 (SULT2A1, Homo sapiens, UniProt Q06520); substrate, HPLC of PAP formation; substrate inhibition fit, added: PAPS 200 µM): 51800 ± 16300 pmol/mg/min
CC[C@H](C)[C@H](NC(=O)[C@H](CC(C)C)NC(=O)[C@H](CCCCN)NC(=O)[C@H](CCC(=O)O)NC(=O)[C@H](CCCCN)NC(=O)[C@@H](NC(=O)[C@H](CCCCN)NC(=O)[C@H](CCC(=O)O)NC(=O)[C@@H](NC(=O)[C@H](CCCNC(=N)N)NC(=O)[C@H](CCC(=O)O)NC(=O)[C@H](CCCCN)NC(=O)[C@H](CCC(=O)O)NC(=O)[C@H](CC(C)C)NC(=O)[C@H](CCCCN)NC(=O)[C@@H](NC(=O)[C@H](CC(C)C)NC(=O)[C@H](CCC(=O)O)NC(=O)[C@H](CCC(N)=O)NC(=O)[C@H](CC(C)C)NC(=O)[C@H](CCCNC(=N)N)NC(=O)[C@H](CC(=O)O)NC(=O)[C@@H](N)CC(N)=O)C(C)C)[C@@H](C)O)C(C)C)C(=O)N[C@@H](CC(=O)O)C(=O)N1CCC[C@H]1C(=O)O  association constant K1 (Calmodulin-1, Ca2+-bound N-lobe (CALM1, Homo sapiens, UniProt P0DP23); ITC; isolated calmodulin N-lobe; 50 µM, pH 7.0, 27 °C, 0.5 mM N-lobe, added: 1 mM CaCl2): < 20000 M⁻¹
N[C@@H](CCCC=O)C(=O)O  Km (Alpha-aminoadipic semialdehyde dehydrogenase, W175A (ALDH7A1, Homo sapiens, UniProt P49419); substrate, NADH production; pH 8.0, 20 °C, added: 2.5 mM NAD+): 1430 ± 204 µM
Clc1ccc(COC(Cn2ccnc2)c2ccc(Cl)cc2Cl)cc1 (centres unmarked)  taurocholate uptake (SLC10A1; inhibitor; NTCP-HEK293; 50 µM; baseline: without compound): 92.3 ± 4.5%
CMEL  relative fluorescence increase (Protein farnesyltransferase; enzyme activity, substrate, fluorimetric; peptide; 3 µM, 30 min, added: 9 µM farnesyl diphosphate; baseline: dansyl-GCVLS (set to 1.0)): 0
O=C1NC(=O)C(c2ccccc2)(c2ccccc2)N1  uptake (Monocarboxylate transporter 8 (SLC16A2, Rattus norvegicus, UniProt Q8K1P8); substrate, Xenopus oocytes; 9.09 µM, 20 °C; baseline: water-injected oocytes): 1.5 fold
C=C(F)C(=O)N1CCN(c2nc(OC[C@@H]3CCCN3CCCOCCC(=O)N[C@H](C(=O)N3C[C@H](O)C[C@H]3C(=O)NCc3ccc(-c4scnc4C)cc3)C(C)(C)C)nc3c2CCN(c2cccc4cccc(Cl)c24)C3)C[C@@H]1CC#N  Dmax (GTPase KRas (KRAS, Homo sapiens, UniProt P01116, G12C); protein degradation, degrader; human cells): 75 to 90%
O=c1ccn([C@@H]2O[C@H](COP(=O)([O-])OP(=O)([O-])[O-])[C@@H](O)[C@H]2O)c(=O)[nH]1.[Na+].[Na+].[Na+]  breakthrough time (GPR17; frontal affinity chromatography-MS; immobilized on IAM column; 1 µM, compound mixture): 3.2 min
O=C1C=CC(=O)C=C1  binding free energy (Reaction center protein M chain, QA site (pufM, Cereibacter sphaeroides, UniProt P0C0Y9); P+QA- formation, flash absorbance at 605 nm; Cereibacter sphaeroides, QA-depleted reaction centers; pH 8.0, 22 °C, oxidized quinone at QA site, weakest binder, uncertain): -3.54 kcal/mol
O=[N+]([O-])c1ccc(Oc2ccccc2)c(O)c1  dissociation rate constant (Enoyl-[acyl-carrier-protein] reductase [NADPH] FabI (Staphylococcus aureus, UniProt Q6GI75); enzyme activity, inhibitor, progress curve kinetics): 9.03 ± 6.58 h⁻¹

Some of these lines once more:
CC(C(=O)O)c1cccc(C(=O)c2ccccc2)c1 (centres unmarked)  taurocholate uptake (SLC10A1; inhibitor; HEK293 expressing NTCP; 100 µM, 5 min, added: taurocholate 10 µM; baseline: no compound): 84.6 ± 6.1%
CTIL  relative fluorescence increase (Protein farnesyltransferase; enzyme activity, substrate, fluorimetric; peptide; 3 µM, 30 min, added: 9 µM farnesyl diphosphate; baseline: dansyl-GCVLS (set to 1.0)): 0.45
